Published values gathered from unrelated publications.
Lines come from different studies, so protocols differ. “And” joins repeats or separate records; there may be more than shown. Numbers after ± are the reported error.
ACHE: Acetylcholinesterase (ACHE, Homo sapiens, UniProt P22303)
Chain of UniProt Q01959 (whole entry, unmodified, looked up): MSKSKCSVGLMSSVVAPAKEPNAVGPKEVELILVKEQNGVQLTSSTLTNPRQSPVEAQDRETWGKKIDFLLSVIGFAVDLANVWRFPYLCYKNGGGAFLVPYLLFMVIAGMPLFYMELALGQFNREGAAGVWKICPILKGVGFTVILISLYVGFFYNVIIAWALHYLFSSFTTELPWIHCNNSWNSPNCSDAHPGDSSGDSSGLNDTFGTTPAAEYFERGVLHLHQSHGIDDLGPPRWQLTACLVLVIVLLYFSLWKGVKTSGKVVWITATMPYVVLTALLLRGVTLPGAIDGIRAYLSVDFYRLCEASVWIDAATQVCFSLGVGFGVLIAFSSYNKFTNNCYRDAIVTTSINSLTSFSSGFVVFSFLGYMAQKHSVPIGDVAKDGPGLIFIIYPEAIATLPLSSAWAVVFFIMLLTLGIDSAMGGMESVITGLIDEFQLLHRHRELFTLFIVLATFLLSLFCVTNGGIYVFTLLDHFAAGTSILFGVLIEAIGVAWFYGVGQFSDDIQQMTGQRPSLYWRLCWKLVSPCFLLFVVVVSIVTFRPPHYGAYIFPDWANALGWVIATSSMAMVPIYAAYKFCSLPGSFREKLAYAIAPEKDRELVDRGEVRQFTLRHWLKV
Chain of UniProt P22303 (whole entry, looked up): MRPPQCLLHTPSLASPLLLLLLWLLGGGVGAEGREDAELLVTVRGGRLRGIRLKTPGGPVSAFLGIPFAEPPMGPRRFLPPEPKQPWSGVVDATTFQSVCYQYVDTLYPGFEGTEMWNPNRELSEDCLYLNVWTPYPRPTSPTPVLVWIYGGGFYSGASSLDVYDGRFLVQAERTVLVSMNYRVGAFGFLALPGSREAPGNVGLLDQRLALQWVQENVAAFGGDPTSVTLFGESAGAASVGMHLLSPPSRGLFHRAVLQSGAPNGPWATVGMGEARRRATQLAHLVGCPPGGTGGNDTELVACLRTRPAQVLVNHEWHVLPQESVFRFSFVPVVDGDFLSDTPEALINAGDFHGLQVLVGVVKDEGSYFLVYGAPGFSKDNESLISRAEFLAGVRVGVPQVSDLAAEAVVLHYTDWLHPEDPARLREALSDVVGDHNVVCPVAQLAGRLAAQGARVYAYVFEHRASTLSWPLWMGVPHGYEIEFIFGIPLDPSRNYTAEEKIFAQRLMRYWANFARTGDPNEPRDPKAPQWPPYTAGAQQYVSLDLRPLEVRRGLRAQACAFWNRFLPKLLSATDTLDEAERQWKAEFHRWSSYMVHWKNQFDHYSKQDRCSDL
Chain of UniProt O00748 (whole entry, looked up): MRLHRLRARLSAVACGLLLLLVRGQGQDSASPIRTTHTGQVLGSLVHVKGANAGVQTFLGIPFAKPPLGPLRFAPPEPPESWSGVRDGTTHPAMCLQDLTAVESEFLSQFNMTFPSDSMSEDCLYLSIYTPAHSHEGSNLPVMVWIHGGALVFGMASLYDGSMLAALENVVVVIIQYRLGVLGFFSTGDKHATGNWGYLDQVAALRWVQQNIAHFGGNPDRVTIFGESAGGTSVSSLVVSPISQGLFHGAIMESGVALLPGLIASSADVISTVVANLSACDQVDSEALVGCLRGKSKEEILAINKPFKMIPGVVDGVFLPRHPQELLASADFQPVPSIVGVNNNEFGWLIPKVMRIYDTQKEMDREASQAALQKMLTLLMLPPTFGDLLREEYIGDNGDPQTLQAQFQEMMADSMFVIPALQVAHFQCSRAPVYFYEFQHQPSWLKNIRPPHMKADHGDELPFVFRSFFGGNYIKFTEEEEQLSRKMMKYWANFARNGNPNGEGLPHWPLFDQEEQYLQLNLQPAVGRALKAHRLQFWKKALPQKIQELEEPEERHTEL
Chain of UniProt Q13324 (whole entry, looked up): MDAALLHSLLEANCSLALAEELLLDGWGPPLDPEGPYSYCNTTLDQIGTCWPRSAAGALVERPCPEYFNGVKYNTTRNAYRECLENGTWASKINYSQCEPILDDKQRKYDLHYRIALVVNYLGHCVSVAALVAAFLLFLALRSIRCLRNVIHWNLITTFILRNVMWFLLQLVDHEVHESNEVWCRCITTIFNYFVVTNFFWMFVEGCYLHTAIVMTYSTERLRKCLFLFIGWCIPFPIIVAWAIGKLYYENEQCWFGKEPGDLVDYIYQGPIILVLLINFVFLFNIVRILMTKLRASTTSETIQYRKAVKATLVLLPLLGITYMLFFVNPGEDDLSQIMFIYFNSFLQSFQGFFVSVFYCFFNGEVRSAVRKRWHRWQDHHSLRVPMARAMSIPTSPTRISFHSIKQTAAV
Chain of UniProt P49336 (whole entry, looked up): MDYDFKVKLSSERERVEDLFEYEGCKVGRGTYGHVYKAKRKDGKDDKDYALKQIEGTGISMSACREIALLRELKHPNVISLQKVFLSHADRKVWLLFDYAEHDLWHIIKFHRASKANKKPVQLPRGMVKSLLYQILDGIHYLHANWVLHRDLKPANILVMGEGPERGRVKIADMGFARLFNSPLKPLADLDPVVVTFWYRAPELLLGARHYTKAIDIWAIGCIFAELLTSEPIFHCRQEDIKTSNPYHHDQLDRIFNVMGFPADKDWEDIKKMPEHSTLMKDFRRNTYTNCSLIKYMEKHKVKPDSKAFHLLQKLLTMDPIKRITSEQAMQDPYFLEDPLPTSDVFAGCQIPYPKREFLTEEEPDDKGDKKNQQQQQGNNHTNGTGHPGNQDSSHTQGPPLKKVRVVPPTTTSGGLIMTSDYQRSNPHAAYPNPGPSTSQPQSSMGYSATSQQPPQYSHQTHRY
Chain of UniProt Q8NET8 (whole entry, unmodified, looked up): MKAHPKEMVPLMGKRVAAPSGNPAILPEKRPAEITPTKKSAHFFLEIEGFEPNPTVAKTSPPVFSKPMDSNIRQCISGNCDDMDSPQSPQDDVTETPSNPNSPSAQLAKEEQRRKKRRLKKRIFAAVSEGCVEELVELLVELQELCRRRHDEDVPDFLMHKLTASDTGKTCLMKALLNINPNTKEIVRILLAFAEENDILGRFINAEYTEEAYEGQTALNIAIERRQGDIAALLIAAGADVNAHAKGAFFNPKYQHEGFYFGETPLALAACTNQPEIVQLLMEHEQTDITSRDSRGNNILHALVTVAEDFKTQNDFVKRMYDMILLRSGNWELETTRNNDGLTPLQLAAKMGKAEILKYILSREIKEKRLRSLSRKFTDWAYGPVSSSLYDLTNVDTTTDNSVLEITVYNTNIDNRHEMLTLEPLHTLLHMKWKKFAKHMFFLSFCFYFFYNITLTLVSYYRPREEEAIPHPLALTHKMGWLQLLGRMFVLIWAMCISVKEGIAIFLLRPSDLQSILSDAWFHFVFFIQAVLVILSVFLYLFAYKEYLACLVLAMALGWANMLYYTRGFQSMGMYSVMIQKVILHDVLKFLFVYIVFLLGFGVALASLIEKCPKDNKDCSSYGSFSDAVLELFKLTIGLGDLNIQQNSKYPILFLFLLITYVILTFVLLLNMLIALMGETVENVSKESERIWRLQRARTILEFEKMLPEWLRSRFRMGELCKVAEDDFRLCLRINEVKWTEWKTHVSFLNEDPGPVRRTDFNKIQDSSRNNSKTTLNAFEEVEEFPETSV
Chain of UniProt Q8N4C8 (whole entry, looked up): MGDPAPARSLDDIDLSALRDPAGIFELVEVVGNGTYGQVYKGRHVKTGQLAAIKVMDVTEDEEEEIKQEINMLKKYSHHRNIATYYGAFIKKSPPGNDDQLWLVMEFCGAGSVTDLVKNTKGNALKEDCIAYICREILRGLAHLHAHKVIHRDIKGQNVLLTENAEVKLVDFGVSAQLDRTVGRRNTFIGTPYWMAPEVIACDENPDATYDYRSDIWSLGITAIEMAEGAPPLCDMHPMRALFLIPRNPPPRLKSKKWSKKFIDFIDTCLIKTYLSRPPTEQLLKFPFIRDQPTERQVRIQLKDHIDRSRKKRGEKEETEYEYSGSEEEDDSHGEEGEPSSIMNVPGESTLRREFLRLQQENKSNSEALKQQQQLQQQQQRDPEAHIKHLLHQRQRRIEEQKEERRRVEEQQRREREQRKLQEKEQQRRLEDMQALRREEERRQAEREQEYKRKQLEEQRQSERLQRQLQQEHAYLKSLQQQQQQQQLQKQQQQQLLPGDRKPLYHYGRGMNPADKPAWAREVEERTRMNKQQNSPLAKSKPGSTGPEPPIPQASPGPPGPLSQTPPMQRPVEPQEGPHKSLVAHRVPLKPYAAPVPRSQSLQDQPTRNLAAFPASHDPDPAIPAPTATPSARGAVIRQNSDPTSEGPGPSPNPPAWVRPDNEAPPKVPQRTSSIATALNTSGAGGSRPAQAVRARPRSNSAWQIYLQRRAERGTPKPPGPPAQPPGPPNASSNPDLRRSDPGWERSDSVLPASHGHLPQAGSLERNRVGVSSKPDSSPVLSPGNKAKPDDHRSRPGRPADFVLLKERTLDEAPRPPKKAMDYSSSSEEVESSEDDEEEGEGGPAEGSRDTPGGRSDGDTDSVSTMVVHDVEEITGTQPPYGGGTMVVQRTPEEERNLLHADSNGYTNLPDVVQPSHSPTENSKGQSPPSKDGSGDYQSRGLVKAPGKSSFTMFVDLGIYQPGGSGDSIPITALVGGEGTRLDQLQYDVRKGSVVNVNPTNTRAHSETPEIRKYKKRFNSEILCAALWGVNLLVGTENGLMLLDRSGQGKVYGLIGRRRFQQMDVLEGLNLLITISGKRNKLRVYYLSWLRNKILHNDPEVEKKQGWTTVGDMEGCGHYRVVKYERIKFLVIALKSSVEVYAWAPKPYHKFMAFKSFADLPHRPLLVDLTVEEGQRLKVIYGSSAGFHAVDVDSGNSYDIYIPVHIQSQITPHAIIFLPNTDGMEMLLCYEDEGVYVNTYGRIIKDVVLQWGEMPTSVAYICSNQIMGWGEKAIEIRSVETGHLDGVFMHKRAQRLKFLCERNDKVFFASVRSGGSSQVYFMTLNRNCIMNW
Chain of UniProt Q96S44 (whole entry, looked up): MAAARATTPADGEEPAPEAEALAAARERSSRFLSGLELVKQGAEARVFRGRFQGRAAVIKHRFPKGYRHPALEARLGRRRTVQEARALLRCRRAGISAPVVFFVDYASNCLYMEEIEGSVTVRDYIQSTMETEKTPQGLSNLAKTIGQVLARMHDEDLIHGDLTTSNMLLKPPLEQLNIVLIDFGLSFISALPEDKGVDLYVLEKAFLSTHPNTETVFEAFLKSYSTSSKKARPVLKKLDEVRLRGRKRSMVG

SMILES | target or system | assay | system | conditions | scale | quantity | value
O=C(NCCN1CCC2(CC1)C(=O)NCN2c1cccc(F)c1)c1ccc(F)c(F)c1 | ACHE | enzyme activity, inhibitor | – | – | – | IC50 | inactive
CCOc1ccccc1C(=O)Nc1ccc(Cl)c(C(F)(F)F)c1 | Histone acetyltransferase KAT5 (KAT5, Homo sapiens, UniProt Q92993) | SPR | – | 1.85 µM | higher = more binding | SPR binding response | 0.15 RU
[2H]c1c([2H])c([C@]2([2H])CCCN2C(=O)C(C)(C)Oc2ccc3cn[nH]c3c2)c([2H])c([2H])c1C([2H])([2H])[2H] | Cyclin-dependent kinase 8 (CDK8, Homo sapiens, UniProt P49336) | KINOMEscan | – | 1 µM | relative to: DMSO control | remaining binding | 76%
CCCn1ncc(CN2CCCC(C(=O)c3cccc(OC)c3)C2)c1C (centres unmarked) | Trypanosoma cruzi | reporter translation, Renilla luciferase mRNA translation | cell-free extract | 40 µM | relative to: DMSO | inhibition | -8.2%
O=S(=O)([O-])C(F)(F)C(F)(F)C(F)(F)C(F)(F)C(F)(F)C(F)(F)C(F)(F)C(F)(F)F.[K+] | – | RT-qPCR, item: Car | mouse, ethanol-fed, liver | dose not given | relative to: efavirenz | mRNA level | increased
c1ccc2cc([C@]34CNC[C@H]3C4)ccc2c1 | Sodium-dependent dopamine transporter (SLC6A3, Homo sapiens, UniProt Q01959, V152A) | inhibitor, [3H]dopamine uptake | – | 100 pM, V152A mutant | relative to: no inhibitor | dopamine uptake | 96.6% and 82.3% and 85%
COc1ccc(N2C(=O)N(c3c(C)cccc3Cl)Cc3cnc(Nc4ccc(C5CCN(C)CC5)cc4OC)nc32)nc1 | Misshapen-like kinase 1 (MINK1, Homo sapiens, UniProt Q8N4C8) | kinase activity, inhibitor | – | 0.5 µM, kinase MINK | – | inhibition | 5.36%
Oc1ccc2c3c1O[C@H]1[C@@H](O)CC[C@@]4(O)[C@@H](C2)N(CC2CCC2)CC[C@]314 | G protein-coupled receptor 88 (Homo sapiens, UniProt Q9GZN0) | β-arrestin recruitment, TANGO luminescence, item: GPR88 | – | concentration not given | relative to: basal luminescence | log2 fold change | -0.118
O=C(c1ccc(Cl)cc1)N1CCN2C(=O)N(OC(=O)N3CCOc4ccccc43)C(=O)C2C1 (centres unmarked) | Cocaine esterase (CES2, Homo sapiens, UniProt O00748) | enzyme activity, inhibitor, MS-based ABPP | SW-620 in situ | 10 µM, 2 h, 37 °C | relative to: compound over DMSO, lower = stronger inhibition | median ratio | 1.2
Cl.Cl.Clc1ccccc1CNCC1CCC(CNCc2ccccc2Cl)CC1 (centres unmarked) | ACHE | enzyme activity, inhibitor | – | – | – | IC50 | inactive
CC[C@H](C)[C@H](NC(=O)CNC(=O)[C@@H](N)CCCCN)C(=O)N[C@@H](CC(C)C)C(=O)N[C@@H](CCCCN)C(=O)N[C@@H](CCCNC(=N)N)C(=O)N[C@@H](CCC(=O)O)C(=O)N[C@@H](CCCCN)C(=O)N[C@@H](CCCNC(=N)N)C(=O)N[C@@H](CC(C)C)C(=O)N[C@@H](CCCNC(=N)N)C(=O)N[C@@H](CCCNC(=N)N)C(=O)N[C@@H](CCCCN)C(=O)N[C@@H](CC(N)=O)C(=O)N[C@H](C(=O)N[C@@H](Cc1c[nH]cn1)C(=O)N[C@@H](Cc1c[nH]c2ccccc12)C(=O)N1CCC[C@H]1C(=O)N[C@@H](CCC(=O)O)C(=O)N[C@@H](CCC(=O)O)C(=O)NCC(=O)N[C@@H](CCCCN)C(=O)N[C@@H](CC(C)C)C(=O)N[C@@H](CCCNC(=N)N)C(=O)N[C@@H](CCC(=O)O)C(=O)N[C@@H](Cc1ccc(O)cc1)C(=O)N[C@@H](Cc1ccccc1)C(=O)N[C@@H](Cc1ccc(O)cc1)C(=O)N[C@@H](Cc1ccccc1)C(=O)N[C@@H](CCC(=O)O)C(=O)N[C@@H](CC(C)C)C(=O)N[C@@H](CC(=O)O)C(=O)N[C@@H](CCC(=O)O)C(=O)N[C@@H](C)C(=O)N[C@@H](CCC(=O)O)C(=O)N[C@@H](CCCNC(=N)N)C(=O)N[C@H](C(=O)N[C@@H](CC(N)=O)C(=O)N[C@H](C(=O)O)C(C)C)C(C)C)C(C)C | HeLa and HEK-293T cells | phosphatase bead binding, competitive inhibitor, PIB pulldown iBAQ LC-MS/MS, item: MOB4 | – | concentration not given | relative to: untreated control | log2 fold change | -0.13
Cl.c1ccc2sc(C3(N4CCCCC4)CCCCC3)cc2c1 | ACHE | enzyme activity, inhibitor | – | – | – | IC50 | inactive
Cc1ccsc1C(=O)C1CCCN(Cc2cnc(N3CCCC3)s2)C1 (centres unmarked) | Trypanosoma cruzi | reporter translation, Renilla luciferase mRNA translation | cell-free extract | 40 µM | relative to: DMSO | inhibition | -12%
CCCN(CCc1ccsc1)C1CCc2c(O)cccc2C1.Cl (centres unmarked) | ACHE | enzyme activity, inhibitor | – | – | – | IC50 | inactive
C[C@H]1CN(c2n[nH]c3nc(N[C@H]4CC[C@H](NS(=O)(=O)CCC(F)(F)F)CC4)ncc23)CCO1 | EKC/KEOPS complex subunit TP53RK (TP53RK, Homo sapiens, UniProt Q96S44) | inhibitor, Kinobeads competition profiling | – | 0.032 µM | relative to: vehicle | relative abundance | 1.08
CNC1(c2ccccc2Cl)CCCCC1=O (racemic) | glycine transporter | radioligand binding, radioligand displacement | – | 30 µM | – | inhibition | 4%
CCCc1cc(O)c2c(c1)OC(C)(C)[C@@H]1CCC(C)=C[C@@H]21 | Transient receptor potential cation channel subfamily V member 3 (TRPV3, Homo sapiens, UniProt Q8NET8, H426A) | calcium uptake, TRPV3 modulator, Fura-2 AM calcium imaging | – | – | – | Hill coefficient | 3.46 ± 0.44
CCCCCCC[N+](CC)(CC)CCCCc1ccc(Cl)cc1.Cc1ccc(S(=O)(=O)[O-])cc1 | ACHE | enzyme activity, inhibitor | – | – | – | IC50 | inactive
CC[C@H](C)[C@H](NC(=O)CNC(=O)[C@@H](N)CCCCN)C(=O)N[C@@H](CC(C)C)C(=O)N[C@@H](CCCCN)C(=O)N[C@@H](CCCNC(=N)N)C(=O)N[C@@H](CCC(=O)O)C(=O)N[C@@H](CCCCN)C(=O)N[C@@H](CCCNC(=N)N)C(=O)N[C@@H](CC(C)C)C(=O)N[C@@H](CCCNC(=N)N)C(=O)N[C@@H](CCCNC(=N)N)C(=O)N[C@@H](CCCCN)C(=O)N[C@@H](CC(N)=O)C(=O)N[C@H](C(=O)N[C@@H](Cc1c[nH]cn1)C(=O)N[C@@H](Cc1c[nH]c2ccccc12)C(=O)N1CCC[C@H]1C(=O)N[C@@H](CCC(=O)O)C(=O)N[C@@H](CCC(=O)O)C(=O)NCC(=O)N[C@@H](CCCCN)C(=O)N[C@@H](CC(C)C)C(=O)N[C@@H](CCCNC(=N)N)C(=O)N[C@@H](CCC(=O)O)C(=O)N[C@@H](Cc1ccccc1)C(=O)N[C@@H](Cc1ccccc1)C(=O)N[C@@H](Cc1ccccc1)C(=O)N[C@@H](Cc1ccccc1)C(=O)N[C@@H](CCC(=O)O)C(=O)N[C@@H](CC(C)C)C(=O)N[C@@H](CC(=O)O)C(=O)N[C@@H](CCC(=O)O)C(=O)N[C@@H](C)C(=O)N[C@@H](CCC(=O)O)C(=O)N[C@@H](CCCNC(=N)N)C(=O)N[C@H](C(=O)N[C@@H](CC(N)=O)C(=O)N[C@H](C(=O)O)C(C)C)C(C)C)C(C)C | HeLa and HEK-293T cells | phosphatase bead binding, competitive inhibitor, PIB pulldown iBAQ LC-MS/MS, item: FGFR1OP2 | – | concentration not given | relative to: untreated control | log2 fold change | 0.0224
CN1CCN(c2cc(-c3ccncc3)c(-c3ccc4ccccc4c3)nn2)CC1 | Corticotropin-releasing factor receptor 2 (CRHR2, Homo sapiens, UniProt Q13324) | antagonist, FLIPR | – | 10 µM | – | inhibition | 12.8%

Some of these lines once more:
SMILES | target or system | assay | system | conditions | scale | quantity | value
Cc1ccsc1C(=O)C1CCCN(Cc2cnc(N3CCCC3)s2)C1 (centres unmarked) | Trypanosoma cruzi | reporter translation, Renilla luciferase mRNA translation | cell-free extract | 40 µM | relative to: DMSO | inhibition | -12%
c1ccc2cc([C@]34CNC[C@H]3C4)ccc2c1 | Sodium-dependent dopamine transporter (SLC6A3, Homo sapiens, UniProt Q01959, V152A) | inhibitor, [3H]dopamine uptake | – | 100 pM, V152A mutant | relative to: no inhibitor | dopamine uptake | 96.6% and 82.3% and 85%
